Results of several laboratories.
Every numbered part comes from another study and shows a few of its results, in no order. Changes are numbered by the printed parent chain.

Block 1
Target: ABI1, truncated, D143A, DHFR fusion (Arabidopsis thaliana)
Technique: DHFR PCA, deep sequencing
Sample: yeast
Setting: methotrexate growth selection, single substitutions
With: (+)-ABA 4.8 µM
Reference: wild-type fitted maximum
Direction: higher = stronger binding
Endpoint: relative binding score
Starting sequence: PYL1, truncated, DHFR fusion (Arabidopsis thaliana); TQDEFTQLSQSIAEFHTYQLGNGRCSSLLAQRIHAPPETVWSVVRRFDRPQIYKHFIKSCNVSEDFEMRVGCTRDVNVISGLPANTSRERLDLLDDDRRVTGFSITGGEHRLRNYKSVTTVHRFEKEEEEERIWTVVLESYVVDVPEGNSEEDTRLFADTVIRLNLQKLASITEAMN
T101R: -6.15%
S26V: 30.9%
V43R: -3.43%
Q7G: 74.3%
T160P: -4.9%
G102R: -3.59%
Q10N: 69.7%
S63W: 12.3%
V118H: 47.9%
R32G: 23.7%
H34M: 75.7%
R163W: 0.466%
R155E: 2.41%
S59K: 56.3%
G21Y: 52.1%
E147H: 63.2%

Block 2
Target: CCND1, cyclin fold, Cln2 fusion (human)
Technique: yeast growth competition, sequencing
Sample: yeast
Setting: weak parent motif
Reference: not given
Direction: higher = stronger binding
Endpoint: normalised enrichment score
Starting sequence: CDT1 docking peptide (human); PPARRRLRLSVDE
R6A: 0.667
E13A: -0.0254
L9A: -0.202
D12A: 0.71
R5K L9F: 0.32
R4A: 0.417
R8A: 0.154

Block 3
Target: RNA binding protein fox-1 homolog 2, RRM domain, GST-SBP tag (RBFOX2, Homo sapiens, UniProt O43251-10, residues 100-194)
Technique: RNA Bind-n-Seq
Form: RNA
Sample: in vitro
Concentration: 365 nM
Setting: natural RNA segment, single round, ends assumed
Reference: no-protein control
Direction: higher = stronger binding
Endpoint: RBNS enrichment (R)
Shared flanks, not repeated: GGGAGUUCUACAGUCCGACGAUC … UGGAAUUCUCGGGUGCCAA
Target sequence (chain): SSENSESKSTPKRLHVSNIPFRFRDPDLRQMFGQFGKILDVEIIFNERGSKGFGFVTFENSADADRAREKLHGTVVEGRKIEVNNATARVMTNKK
AGUGGCCCAGACGCUGCUUUGUGCUAAAAGCAUGGGAAAUGUAAAGGCAGUCUUUCUCUGGGAAAUGGAUGCUAUUCUAUUCUGCUGCCCCUACCUGUUCCUGAGGCCUC: 1.74
UGAGUGGCGGAGGAGCCUCAGCGCACUGAAGGCCCAUGGCGCCCGGGUUGGUUUUUCCUUUCUUCUUCAUCUUCCUUCUUUUUAAAAGUCAACGAGAGCCUUUGCCGACU: 0.576
UCCCUACAGCCCAUAGUAGUGUCAGCGUGGACUGUAGGGCCCCAUUGGGUAUUAGGAUUUAGGCUCCCCCACCCCCACCAACUUUAAAGUGGUUGAGUAAUUUUUUUGUG: 0.94
GAAAGUUGGAAGCUCAUAUCCCCAUAGUCGCAGAUCACGAUGUAAAUCACUGUAAUUAAAAUUGGUGUUAAAUCCUUUGGGUUUUCCACUGCCUUAAAAUGAUACUUAUU: 0.413
AGAUCCAGCGGAAAGUUGAAAAUAAACUGGAAUGAUCAUCUUGGCUUGGGCCGCUUAGGAACAAGAACCGGAGAGAAGUGAUUGGAAAUGAACUCUUGCCCUGGAAUAAU: 0.193
CAGAAUCGACCCUUCUCCCAUUGAUCCAUGUCUCCCGUGUCACCAUGGGCAUGGCAUGUGAAGCAAUGUCCUGCAGAUGGAUUACCACCUUUUAUUUCUGCCAGCUAACA: 0.312
CUGGAAUAGAAACCACACACUGGCUUGCUGUGCACCAGCCACUUUGCAUCUAAUCCAAGCUUUGAAGGGUGUUGCUUGGGAGGAAACAAAUACAGCCUUCCAUCUUCACU: 0.474
UCCACAAAUGCUGUAUACAGGCUGUACCGCUGCUUCAAACCCCACUUGUCCAGUGCUUCACAGUGUUGCUAAUCAGUGGAGAAAUACAUGCUUUCAUUAUCAAGUGUAGU: 0.432
UUUUUCUUCAAGAGACGCAAUUGCAAUAGUAUUUUUUAGAUUUUAUCCAAGAAGUUUUUUGGGCGAAAAUCUUGGAUCAUUUUUAUGUAGCAUGAUUUUCCUUGGGAUGC: 1.83
CCCAAGAGCCACCAGCUCUUCUUACCAUACCACUUCCUAACUCCUGUAAGGAUGAGCCCAGUUAGUAAGGAUGUUGGUAAUCAGCAGAGACCAUUCUCAAGGGUAGGUGU: 0.464
CAAAACGUAUGUGUGAAUGUAGUUAUAAUGCUUUUGAAAAAUUUUCCUUUUUCUAUAUCCCCUUAGUCCAGCCUCUCUUCUCAGACAUUUAGCUAUCUGCCUCUUUCCUU: 1.02
ACAGAGGACUGAAACCUCCACUGCAGGCUGGUUUUAGGUCUUGAAUUAUGUAAGAAUCUUGCACAGCACUGCUAAUGUAAAUUUCAGUUGUUUUUCCCUCUAGGACAAAC: 0.389

Block 4
Target: Phosphate system positive regulatory protein PHO4, full length, GST-tagged (PHO4, Saccharomyces cerevisiae, UniProt P07270, residues 1-312)
Technique: competition protein-binding microarray
Form: double-stranded DNA, one strand shown
Sample: in vitro
Concentration: 2 µM
Setting: whole 60-bp probe, lowest competitor level
With: Cbf1 competitor, 0.05 µM
Direction: higher = stronger binding
Endpoint: fluorescence intensity
Shared flanks, not repeated: … GTCTTGATTCGCTTGACGCTGCTG
Construct (chain): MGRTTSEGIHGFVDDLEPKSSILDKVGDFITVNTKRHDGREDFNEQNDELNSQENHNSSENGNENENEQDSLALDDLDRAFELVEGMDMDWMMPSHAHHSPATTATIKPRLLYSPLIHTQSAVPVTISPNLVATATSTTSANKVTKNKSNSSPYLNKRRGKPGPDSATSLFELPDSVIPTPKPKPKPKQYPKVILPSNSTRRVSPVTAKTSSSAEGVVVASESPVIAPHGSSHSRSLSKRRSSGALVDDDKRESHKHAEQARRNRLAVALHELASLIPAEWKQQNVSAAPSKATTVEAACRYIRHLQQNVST
CCCTTTCCAACGCCCTACGTGCCAGGCCTCGACCGG: 7410 a.u.
TCTGGGTGTAACATTCAGATGCGGGCGTCATTTATT: 3760 a.u.
CTAACGAAGGTTTGGTTAGTGGGTGACAAGCCAAGT: 3750 a.u.
TTGGCACTTCGCACAGGCGTGACTCGTTTCTGTGAA: 5980 a.u.
GTCTTGTCTCATTGGGACGTGGGTGTCCCCACTTCA: 6450 a.u.
TTGTAAGATTCTACTCCCGTGAAGATCCCAATCGCT: 3740 a.u.
CGGGGTTAAGTTTGAAAAGTGGGTGGCTTGCAGCAG: 4190 a.u.
CGTCCTAGTGATTGCTCTGTGGGTGCCATGAGGAAG: 6530 a.u.
AAAATAGCTGAAATTCACGTGTTGAATTACCGCATC: 12800 a.u.
CTTTCCCGATCTTGTCACTAAACTTTAGCACATTTG: 4100 a.u.
GTCTTGTCTCATTGCCCGGTGGGTGTCCCCACTTCA: 5180 a.u.
TTACAAGTTATGCCTCACGTTACCTGGATCCTGCAT: 7020 a.u.
CTTTCCCGATCTTGTACAGTGGGTGTAGCACATTTG: 4180 a.u.

Block 5
Target: Sal-like protein 4, full length isoform A (SALL4, Homo sapiens, UniProt Q9UJQ4, residues 1-1053)
UniProt Q9UJQ4, sequence (whole entry, looked up): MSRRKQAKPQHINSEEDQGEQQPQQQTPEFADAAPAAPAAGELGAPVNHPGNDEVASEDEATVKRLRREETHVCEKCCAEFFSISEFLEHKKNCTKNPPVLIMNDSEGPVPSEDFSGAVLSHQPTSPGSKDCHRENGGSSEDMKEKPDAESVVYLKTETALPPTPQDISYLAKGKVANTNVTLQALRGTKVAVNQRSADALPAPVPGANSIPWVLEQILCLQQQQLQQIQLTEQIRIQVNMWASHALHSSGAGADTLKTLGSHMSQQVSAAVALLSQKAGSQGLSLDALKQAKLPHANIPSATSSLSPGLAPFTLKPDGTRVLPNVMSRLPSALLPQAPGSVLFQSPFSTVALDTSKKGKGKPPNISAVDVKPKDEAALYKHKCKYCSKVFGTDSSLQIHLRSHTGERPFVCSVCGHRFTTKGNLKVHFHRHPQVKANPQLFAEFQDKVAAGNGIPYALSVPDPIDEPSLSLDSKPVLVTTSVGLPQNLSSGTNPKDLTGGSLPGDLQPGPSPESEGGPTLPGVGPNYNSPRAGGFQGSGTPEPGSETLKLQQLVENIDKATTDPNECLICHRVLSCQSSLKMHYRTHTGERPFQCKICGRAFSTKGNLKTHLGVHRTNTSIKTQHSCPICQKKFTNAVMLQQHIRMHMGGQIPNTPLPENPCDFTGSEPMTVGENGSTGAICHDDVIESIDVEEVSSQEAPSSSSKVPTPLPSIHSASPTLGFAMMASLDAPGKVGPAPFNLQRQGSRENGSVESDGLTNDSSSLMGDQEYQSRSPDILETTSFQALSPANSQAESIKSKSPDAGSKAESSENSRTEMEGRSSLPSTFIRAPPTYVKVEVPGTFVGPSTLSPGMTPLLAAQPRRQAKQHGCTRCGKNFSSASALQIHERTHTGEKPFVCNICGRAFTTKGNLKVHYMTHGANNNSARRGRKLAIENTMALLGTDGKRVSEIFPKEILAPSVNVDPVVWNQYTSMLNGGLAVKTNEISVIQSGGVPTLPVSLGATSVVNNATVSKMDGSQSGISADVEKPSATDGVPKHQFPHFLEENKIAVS
Technique: universal PBM
Form: double-stranded DNA, one strand shown
Sample: in vitro
Concentration: 600 nM
Setting: 8-mer, flanks averaged, mean of replicates
Direction: higher = stronger binding
Endpoint: E-score
ATCCAGTG: -0.00298
GATGCCAA: -0.0114
ATCAACAG: 0.0766
ATTAGCCC: 0.012
AAAGGCAT: 0.105
AACTCCAC: 0.0164
GTCGTCAA: -0.118
GGAGCACA: -0.0421
ACCGTGGA: -0.218
ACGCTTCT: -0.136
CAGCTAGG: -0.193
GTGAATAA: 0.233
GTAAGACA: -0.00288
CATGGGTA: -0.117
GCCAAAGC: -0.168
GCCGTTAA: -0.0675
ATTACACG: 0.155
ATAAGGAA: 0.131
AGCATAAG: 0.0951
TCGCATAA: 0.289
AGCGCCCC: -0.396
CGCACATC: -0.156

Block 6
Target: RING finger protein unkempt homolog, zinc fingers 1-6, SBP tag (UNK, Homo sapiens, UniProt Q9C0B0, residues 30-357)
UniProt Q9C0B0, sequence (30-357, looked up): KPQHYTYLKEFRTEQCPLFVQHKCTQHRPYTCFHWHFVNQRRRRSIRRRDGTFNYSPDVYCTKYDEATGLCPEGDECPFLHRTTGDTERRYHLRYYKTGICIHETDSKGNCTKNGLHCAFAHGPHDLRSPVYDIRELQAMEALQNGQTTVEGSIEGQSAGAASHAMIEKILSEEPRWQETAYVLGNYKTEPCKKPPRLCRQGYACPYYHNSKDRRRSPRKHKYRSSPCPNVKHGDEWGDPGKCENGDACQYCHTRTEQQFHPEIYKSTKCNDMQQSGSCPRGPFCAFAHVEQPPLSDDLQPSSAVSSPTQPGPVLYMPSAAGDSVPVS
Technique: RNA Bind-n-Seq
Form: RNA
Sample: in vitro
Concentration: 100 nM
Setting: RNA with constant flanks, vertebrate orthologous sites, ends assumed
Reference: input RNA pool
Direction: higher = stronger binding
Endpoint: bound/input enrichment
Shared flanks, not repeated: GGGAGUUCUACAGUCCGACGAUC … CAACAGAGGAUUGAGCAUCA
AGCAGCUCAAGGAUUCAGAACUGGUUUUGCAAAUGUGCCAGGCAGAUAUGGAACAAACGCUCGUGGUCAGCCCCGACCAUAAUAAACACCAUUAUUUAUUAUACUUAAGGGUAUUGAUUA: 0.169 ratio
GAUUUGGACCUGGGAGCAGAGCUAGGGAGCUGACUAAAGUAAAGCAGACUUGUAAAAUUGUAGCCAUAUGCAGUUGCACAACAACAGUACCAGCAUAGCAGCUGUGCUAAAGUAUUUAUA: 0.603 ratio
UAAUGUGUUUUUAUUUACUGAAGAUCGUUUUGUGCCAAGAAUUGUGUUAGAUUUAAAAAUAAGAGGAUUAGUUCCUCUUUGUUGUGUUGAUUUCAUUGUUGAAAAUAAAUAGAACUUUGU: 0.643 ratio
UUUGUGGGGGUCGGGGGGUGGGGAGAAGAUGUAUGGAUGUUAUUGGCAUUUUUAAGUGUUCAGAGUUUUUUGGGGUUUUUUUUUUUCCUCCUGUUUUGUUUUUUCCCUUUAAUUGGAUGC: 0.788 ratio
UUUAAAUCUCUUCUCCCCUGUCCUGAUUUUAAAAGCCCCGCUUUUUUUAUUUUCUUUUUUUAGGCAUAUGUAGUAAUAUUAGAAACAUUUAAUUUGGGAAACUUUGAUUCUUAAAAGCGA: 0.836 ratio
UCACAAACUCAAAGGGGAACUAGUAAAGAGAUUCUAAUAGUUAGGAAAAGAGUAGGAAUUUAGGAAAGAGUAGGACAACUUUACAAAUGAACAAUUAAAAAUAAAAGAGAGAGAAUCCGG: 0.563 ratio
CAUUGAAUACAGGGGGAGAUACUGAAUAUUAACAUUGUCUUUUAUGUUUUGCACCCUAAUAUCUAUUCUUUUUAAAUUUUCAGACUUCACUGAUCUUUGAAUUGAUCCAGGUUACCGGAA: 0.889 ratio
UUUAUUGAUCAGGUCUGUAAAUGUGUACUAAAAUGAAUCAGAGUUUAUUUAUAAACAGAAUAGUUUAUUUAAAGAGAAGGUCUUUUCCUCACUGAUAUCGUGGUAUGCAUUAAUUCUAUU: 0.119 ratio
GCCAAACAUUGCUCCUCUAACUCCCCUCAGUCCGUUGUGUUCUAGUCAGUCUGUUGUGUGUAUAGGCUACUACACAUGCACAUGUCCGUCUGUCUCGCGGAAGGGCUAGACUUGUUUCGU: 0.614 ratio
UUUUGUUGAUCAGGUCUGUAAAUGUGUACUAAAAAAAUCAGAGUUUAUUUAUGAACAGAAUAGUUUAUUUAAAGAGAAGGUCUUUCCUCAUUGAUAUUGUGGUAUGCAUCAAUUCCAUUU: 0.429 ratio
AUCCCAGUUUGUAUGCACAUUAUUCACAUUCCUAUCUGUUGUGUUUGCAGAAAUGACAUUUUACCCUUUUCUAAGGGUUACCUUUUGAUUUUCAUAUUUGGUUGCAUGAAGUUGCCCUUU: 0.312 ratio

Single results of other studies
PhoQ, residues 284 288 289 292 302 303 QWQEDG — fold induction (PhoP, residues 12 14 15 18 19 NHFRA (Escherichia coli, UniProt P23836); Sort-seq, measured: YFP reporter; E. coli; PhoQ-PhoP variant library, with: 10 µM Mg2+; reference: high Mg2+ state, higher = stronger signaling): 2.43

For quick reference, copied from above (block 5):
ATTAGCCC: 0.012
AAAGGCAT: 0.105
AACTCCAC: 0.0164
GTCGTCAA: -0.118
GGAGCACA: -0.0421
ACCGTGGA: -0.218
ACGCTTCT: -0.136
CAGCTAGG: -0.193
GTGAATAA: 0.233
GTAAGACA: -0.00288
CATGGGTA: -0.117
GCCAAAGC: -0.168
GCCGTTAA: -0.0675
